Experimental data pooled from the literature.
Protocols differ between the studies behind these lines.

Compound	test	system	conditions	endpoint	value
O=C(c1nc2n(n1)[C@H](c1ccccc1)C[C@@H]2F)C1CC1	–	human	150 mg single dose, mean	fraction excreted in urine 0-72 h	0.16%
Cn1cc(-c2cn3nccc3c(-c3cnn([C@]4(CC#N)C[C@@H](C#N)C4)c3)n2)cn1	–	human, urine	oral, 30 mg once daily, day 10, dosing interval geometric mean	fraction excreted unchanged in urine	0.7%
C=CC(=O)Nc1cc(Nc2ncc(C(=O)OC(C)C)c(-c3cn(C)c4ccccc34)n2)c(OC)cc1N(C)CCN(C)C	–	healthy human, urine	oral, 160 mg single dose, arithmetic mean	fraction of dose excreted	1.44%
C[C@@H](Oc1ccc(S(C)(=O)=O)cc1C(=O)N1C[C@@H]2C[C@]2(c2cc(C(F)(F)F)on2)C1)C(F)(F)F	–	young healthy humans, urine	oral, 10 mg once daily, 0 to 24 h, multiple dosing	fraction excreted in urine at steady state	7.06%
CC(C)(Sc1ccncc1-c1ccc(C#N)c2ccccc12)C(=O)O	–	human, urine	oral, 5 mg, with: febuxostat 40 mg	fraction excreted in urine (0-24 h)	1.67%
CN[C@@H]1COc2c(S(=O)(=O)NC(=O)Nc3c4c(cc5c3CCC5)CCC4)cnn2C1	–	human, urine	oral, 300 mg twice daily, 0-12 h, day 7	fraction excreted in urine	0.148
Cc1cc(-c2nccc3c2ccn3CC(=O)Nc2ccc(-c3cnccn3)cn2)ccn1	–	human, urine	oral, 40 mg single dose, geometric mean	fraction excreted in urine	2.17%
CNC(=O)c1ccc(-c2cnc3ncc(Cc4ccc5ncccc5c4)n3n2)cc1F	ultrafiltration	human moderate hepatic function, plasma	oral, 200 mg, 3 h post-dose, mean	fraction unbound	0.0322
CC(C)n1c(C2CCNCC2)nc2c([N+](=O)[O-])c(Br)c(Br)cc21	–	human, urine	oral, 50 mg, median, single dose	fraction excreted in urine	0.02

Some of these lines once more:
Compound	test	system	conditions	endpoint	value
O=C(c1nc2n(n1)[C@H](c1ccccc1)C[C@@H]2F)C1CC1	–	human	150 mg single dose, mean	fraction excreted in urine 0-72 h	0.16%
